Assay results collected from several papers.
Every numbered part comes from another study and shows a few of its results, in no order.

Sample 1
Target: RNA binding protein fox-1 homolog 2, RRM domain, GST-SBP tag (RBFOX2, Homo sapiens, UniProt O43251-10, residues 100-194)
Technique: RNA Bind-n-Seq
Form: RNA
Medium: in vitro
Concentration: 365 nM
Setting: natural RNA segment, single round, ends assumed
Relative to: no-protein control
Direction: higher = stronger binding
Constant ends, left off below: GGGAGUUCUACAGUCCGACGAUC … UGGAAUUCUCGGGUGCCAA
Construct (chain): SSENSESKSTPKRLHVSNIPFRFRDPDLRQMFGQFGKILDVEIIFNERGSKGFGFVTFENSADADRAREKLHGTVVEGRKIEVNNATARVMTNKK
Oligonucleotide	RBNS enrichment (R)
CUUCUGUACAUGUUUUCCCCUUUGGUGAUACCCAGUGGUCCCAGCUAAUGGUGUCUGAGCAUAGUCAAGAAUACAACUCCUUUCACAUAAAGAUCCCCUACAGCAUUUCU	0.856
AUAGGCCUUCCUGGUGGUUUUGUUUAACCCCAUGACCCUCCCCAACUCUUCUCAGAGCUUUGGGGGUUAUGUGAAAGGCUGACUAGUUGAGGGUUUAGCUGCAGGGAAGG	0.339
CCAUUUUUAAAUAGUACUUUCUUUGAGUCAUAAAUUGUAUCUAACCAUCUUGGGUUCUGGUCAGUGCUGCAGGCUCCUGGGCUCCCCUCUGCCCAGUGAGCAACUUAUAC	0.707
GGAAGUCCACUUCAGUAAGUGCAAGGCGCUAGCACCCAUCGAGGUAGAGGACAUUGCUUUAAGCCCCAGUUUGUUUGUAGGGUUGAGUAUGAAAAAGCCCAUCUCCUGUG	5.93
CUCCUGGGCACCCUUGCCUCGCCCCAGACCGGCCCGUCCAGUCCCCAUCACACCUCGGCGGCCUUUAUUUAUUCUGUUCCCCCAGCUCGGCCACUUCUCUGAAGGAGGGC	0.33
AGCAGACGGUGUCCCUCAGUGACUUGAGAGACAAGGACAAGGAAAUGUGCUGGGCCAAGGAGCUGCCGUGCUCUGCUAGCUUUGACCCGUGGGCAUGGAGAUUUACCCGC	0.888
CACCAUUCAGGAACCUGGACCAAAGCUGACGAGGCUGGGCCAAGCCAGGGAUGGGGCCACAGCCAGAACCCCGAGCCCUACUUCCAGGUUCUGGUUAGCUCAGCCCCAGC	0.332
GUUCUAUAUAAAAAGAUGUUUCUUUGGUAUUCUUCAGCCUGUGUUUUCAAGUUUUACAGAAGCAGAGCUUUUCCCUAAGUUCCUCUUCGGUUCACUGUAGAUCCAGUUCU	1.42
AAUGUAGGGGGAUCUCGGAAUGAACUCCUGGGGUUCCUGGUCUCCAGCCCAGCCUGAUGGUGUAAAUGUACUGUUUCAGAAAACACAUGAGGCUCACCGAAGGCUGAAGA	0.882
AUUAACUCAGAGGCUCACUACAGAAAUAUGUAAUCAGUGCUGUGCAUCUGUCUGCAGCUAAUGUACCUCCUGGACACCAGGAGGGGAAAAAGCACUUUUUCAAUUGUGCU	0.408
AGGCUUCUGCUCUCCUCAAAGCCAUACCCCCGCCUUUGGGCGGGCAUAGAGGGGUAGUGGAUGCUAGCCAGCAGCACGGAAAGAGCCUUUUUCUAAAGAAAAAGACAAAA	0.31
CCUAAGCCACCCACAUAAGUACGCUGGUGCCGUGUCACCCAUGUUGAGCCGCUCCUGAUGGCUGACGGGCUCCCAGACCCUCACCUCGGACAUGGUGGUGGGGGAAGGAC	0.383

Sample 2
Target: Interferon regulatory factor 7, full length, phosphomimetic (IRF7, Homo sapiens, UniProt Q92985, residues 1-503, S101K/S471D/S472D/S475D/S476D/S477D/S483D/S484D/S487D)
Technique: protein-binding microarray
Form: double-stranded DNA, one strand shown
Medium: in vitro
Concentration: 250 nM
Setting: 60-bp whole probe
Together with: salmon DNA 0.4 mg/ml
Relative to: random background probes
Direction: higher = stronger binding
Constant ends, left off below: GCCTAGCAC … GTCTTGATTCGCTTGACGCTGCTG
Construct (chain): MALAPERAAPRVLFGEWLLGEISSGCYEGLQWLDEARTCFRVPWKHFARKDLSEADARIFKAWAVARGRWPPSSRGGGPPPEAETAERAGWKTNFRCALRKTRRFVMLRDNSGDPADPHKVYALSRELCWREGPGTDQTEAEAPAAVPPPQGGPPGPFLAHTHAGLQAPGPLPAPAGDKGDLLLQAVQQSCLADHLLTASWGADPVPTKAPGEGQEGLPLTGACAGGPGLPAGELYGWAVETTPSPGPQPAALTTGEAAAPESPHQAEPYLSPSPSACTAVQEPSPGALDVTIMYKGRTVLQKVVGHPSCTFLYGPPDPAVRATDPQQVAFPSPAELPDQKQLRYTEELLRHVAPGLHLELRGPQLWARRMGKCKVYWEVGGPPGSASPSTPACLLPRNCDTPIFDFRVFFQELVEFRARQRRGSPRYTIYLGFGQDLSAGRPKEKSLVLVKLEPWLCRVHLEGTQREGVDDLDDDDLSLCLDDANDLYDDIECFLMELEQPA
Oligonucleotide	log fluorescence [z-score]
TGAGAACTGAGACTGGATTAGTGCTAG	-0.241
TTAGATATCAGACTGGAGTAGTGCTAG	-0.173
TTAGGTTTCGTACTGCTTTAGTGCTAG	5.72
TTTTGTTTTTCATTATTGTCGTGCTAG	2.3
TCATCGTAAGCAAAAATACTGTGCTAG	0.181
TCACCTGTGCTATTTATAACTGTGCTA	-0.526
GACGGTATCCTTTCCCTGACGTGCTAG	0.554
TTAGGTATCGGGTATCGGTTTGTGCTA	3.55
GACGAACTGGGGAATGGAGACGTGCTA	-0.224
TTACATTTCAGTATCGATTAGTGCTAG	1.41
GCCGGTATCGGGACTGGGGACGTGCTA	-0.0159
GAAGGTATCCTACTGCTGACGTGCTAG	-0.274
TCACTCATGGCTTTGTAACTGTGCTAG	-0.203
GACGGTATCGGGACTGTGGACGTGCTA	-0.374
TTTGATATCGGGTATCGATTAGTGCTA	0.396
GACGAACTGGCGACTGGAGACGTGCTA	-0.752
AGTGTGGTCTGTTTCTGATAGTGCTAG	-0.251
AAGAGTTTCCCTCCCTGAGTGTGCTAG	0.895
TCCTAATTCTCTTTTCACTTGTGCTAG	1.61
TTAGGTATCAGTCTCGGTTAGTGCTAG	1.73
GACCTCGTCTCTATCAAAAAGTGCTAG	0.984

Sample 3
Target: Hepatocyte nuclear factor 3-alpha (Foxa1, Mus musculus, UniProt P35582, residues 1-468, full length assumed)
Sequence of UniProt P35582 (whole entry, looked up): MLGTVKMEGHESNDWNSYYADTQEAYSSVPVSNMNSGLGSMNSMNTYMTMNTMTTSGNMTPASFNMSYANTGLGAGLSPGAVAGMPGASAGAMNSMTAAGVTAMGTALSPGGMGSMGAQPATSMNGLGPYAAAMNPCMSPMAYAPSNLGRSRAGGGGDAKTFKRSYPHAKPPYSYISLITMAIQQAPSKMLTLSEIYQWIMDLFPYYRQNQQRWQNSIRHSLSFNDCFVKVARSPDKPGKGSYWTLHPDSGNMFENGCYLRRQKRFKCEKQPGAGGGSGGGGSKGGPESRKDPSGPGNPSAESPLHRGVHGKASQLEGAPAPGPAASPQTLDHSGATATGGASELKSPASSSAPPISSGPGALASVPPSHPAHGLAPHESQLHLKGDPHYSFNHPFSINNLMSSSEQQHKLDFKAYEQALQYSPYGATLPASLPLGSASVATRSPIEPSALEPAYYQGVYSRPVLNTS
Technique: EMSA with sequencing
Form: double-stranded DNA, one strand shown
Medium: in vitro
Concentration: 10 and 20 nM
Setting: whole designed probe, mean of two concentrations, ends assumed
Relative to: negative control set to 0
Direction: higher = stronger binding
Constant ends, left off below: GTGAGCGGTGCCCATTGATGGGGAAC … TTTCACTGGGATCGTGGGGAC
Oligonucleotide	normalised bound fraction [ratio]
CAGCCTGCAGTGCGCTCAGTTAAACAATTCCAAATCAAGGAATTTTGTCTGATACAAGGAATTTGGCGTCTGTTTTCCTAACATGCACCCTGGGTAAATAGACTGGGGCGGCGGGCCATTTCCTGACCCAGCTGAAGCCAATATGCATTGCGGCCACAAGGTGGCGCGTCTGGGCCTGGCAAACCCCTGTGCT	0.24
CAAACTTTGCTGTAGTTTAACCCTGTAAATCATTGGAAAGTTTATCAAATACCTTAAATGCTTTTGCAACTTATTCATTCCCTGGTTATTTGGGTAATCTAGTACAGCGAACAGTTGGATGAACTTTATCTGAACTATTATCACTGAGCTGTTGGGGGAAATTCCGTCTTTTCCAAATCTGTACTGCGATATA	0.00393
ATCTTCCCCCTCTTCCTTGCCCCACCAGCTCACCTTCCCGGGTTGTTTACTTTGAGCAAAGTAAACAAAGCCGGCATTCGTTAACCCTCTTCACGCGCATACTGCCAAAGTAAACAGATGAATCATGGTCCTTTGGCGACGCCAGGCTCCGGGAGAGCAAAGCACCGTGTCAGGGCCATGATCCGGGGTGGCC	0.569
TCGTGATTTGATATCTTGGTAATTTAGACTAGAGCCAGAGCAGTTTTTAAAGAGAATCTTTTCTGATCATTTTAAGCAGCATGATAAATTCTAAGTAAACATAAATTTTGAATAATTACAGAGTGGGCATGAGCTCTTCCTTTCTTTGTTCCTCTACATGCAAGAAACTGGATGCCAAGCCCAACCTCTGGAT	0.363
CCAGGGACAATGTGCAGTTGTTGGTCCTGGGTCTTTGACAGACTCCAGGTCAAAGGCAAGACACCGTGAGAAGGGAAAGGATCAAGTCTGTGAGCAATCTCCATCAGCCTTGCAATTTGATGGTGGCCTCAAGGAGACATTGGGCGTGTGTTTAAACAAGCAAGGAAGGCAGCTGTACAAGTGCCCTAATCTG	0.157
TGGCAGAGCCAAGTTTACCAGTGTGTTGGCAGGAGTTACTGTTCCTTCTTGTGTGATTTCTTTGAGGACATTGCACAGATTATACAGAGAGTGTAATCTTAGCTGTTGATTTAACTAAACACTGTTTTTTGTTCCCCGTCTCTCACAGCCATGGTAAATAGCCTAATATTTAAGCTCAGAGGCTTTGATGTGA	0.14
ATCACTGGTTCTCAAAGCAAAGTTTACAAAGACCAGGGTCATCCTGAGAGTATGTGGGCAGATTACATGGTGCACTTGACCCTTGCTCCTTTGAGATTACACAGGCAGAGTCAGGCCAGACTACATGCCAGGGTGACCTTAAGAGAGAAAAGAGGCCAGGCATGGTGGCTCATACCTGTAATCCTAGCACTTT	-0.00342
TGTTTTAAGAGAAAAAGGGTTCCATGGGATCTCAAACTCTTGAGAGCTCTCTCTGTAGGTGGGAGTTCTGTCATGTGGGGTTTGTGCCCTTGTAAATTACAATGCAGAATGAACACGTGATATTTGACTCCACCTCTCCCCCACACCCAGACTGTGCCCACTTCCCCTCCTATGACATTTGGATCTTTCCATA	-0.032

Sample 4
Target: PABPC1L2, full length, GST fusion (mouse, UniProt A0ABA7IW68)
Technique: RNAcompete
Form: RNA
Medium: in vitro
Concentration: 20 nM
Setting: 7-mer, probes averaged, single round
Relative to: mean of 7-mers
Direction: higher = stronger binding
Construct (chain): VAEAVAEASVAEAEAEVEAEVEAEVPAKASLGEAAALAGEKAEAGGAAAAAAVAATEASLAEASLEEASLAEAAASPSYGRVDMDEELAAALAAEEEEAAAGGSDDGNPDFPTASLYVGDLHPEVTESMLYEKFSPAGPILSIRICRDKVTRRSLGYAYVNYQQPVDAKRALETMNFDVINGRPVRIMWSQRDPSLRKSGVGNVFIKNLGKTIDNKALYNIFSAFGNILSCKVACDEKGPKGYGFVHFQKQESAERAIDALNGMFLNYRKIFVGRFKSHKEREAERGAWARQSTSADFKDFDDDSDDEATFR
Oligonucleotide	7-mer Z-score
AGCCAAG	-0.0826
ACUGGGA	0.148
GUGCGGC	0.00798
AGAUAUA	-0.157
UUGGCCG	-0.235
AUGUGUG	-0.184
AGCGACU	-0.0645
UCUAUCA	-0.267
UUGUCAG	-0.267
GAUGGAA	0.0732
UAAAAAA	17.3
AAUUAAC	0.0932
UGUAUUC	-0.331
UGGUUUC	-0.367
GACGUCA	-0.229
CAGGCGA	0.305
CGGUAUA	-0.112
AGGCACC	-0.0047
CGCCGUA	-0.325
AGGAGCG	0.251
AUGUCUA	-0.144
UAAAGUC	0.441
CCCAAAA	5.13
GGUCACC	-0.0446
GAAUUAC	-0.139

Sample 5
Target: Histone acetyltransferase KAT6A, both winged helices, GST fusion (KAT6A, Homo sapiens, UniProt Q92794, residues 1-181)
Technique: protein binding microarray
Form: double-stranded DNA, one strand shown
Medium: in vitro
Concentration: not given
Setting: 8-mer, flanks averaged, mean of 2 arrays, mostly near background
Relative to: not given
Direction: higher = stronger binding
Residues (chain): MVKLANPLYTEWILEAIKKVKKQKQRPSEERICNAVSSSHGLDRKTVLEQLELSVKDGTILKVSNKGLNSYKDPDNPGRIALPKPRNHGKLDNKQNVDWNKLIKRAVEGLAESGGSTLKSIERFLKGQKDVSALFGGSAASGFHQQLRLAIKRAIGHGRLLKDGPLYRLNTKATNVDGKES
Oligonucleotide	E-score
ACCACTAG	-0.169
CCTAATCG	-0.126
ATATCTCA	-0.0858
ATAACACC	-0.014
CGATCGCA	0.149
AAGAGCGC	0.22
CGTAGCAA	-0.0238
GCGCTGAC	0.228
CAAATCAG	-0.0721
AGACTAGA	-0.17
AGCAACGC	0.15
CTAATTAA	-0.0908
GGATCACC	-0.0801
CATGGTTC	0.0627
ATGAGCCC	-0.0496
CACTGTCC	0.0519
ATGCTGGC	-0.173
AACGTCAG	-0.11
ATGGAAGG	-0.0856
GTGGTGGA	-0.127
ATGGCGAG	-0.153

Excerpt of the above (sample 4):
Oligonucleotide	7-mer Z-score
AGGCACC	-0.0047
CGCCGUA	-0.325
AGGAGCG	0.251
AUGUCUA	-0.144
UAAAGUC	0.441
CCCAAAA	5.13
GGUCACC	-0.0446
